Assay results collected from several papers.
Every numbered part comes from another study and shows a few of its results, in no order. “And” joins repeats or separate records; there may be more than shown.
Chain of UniProt O60331 (whole entry, looked up): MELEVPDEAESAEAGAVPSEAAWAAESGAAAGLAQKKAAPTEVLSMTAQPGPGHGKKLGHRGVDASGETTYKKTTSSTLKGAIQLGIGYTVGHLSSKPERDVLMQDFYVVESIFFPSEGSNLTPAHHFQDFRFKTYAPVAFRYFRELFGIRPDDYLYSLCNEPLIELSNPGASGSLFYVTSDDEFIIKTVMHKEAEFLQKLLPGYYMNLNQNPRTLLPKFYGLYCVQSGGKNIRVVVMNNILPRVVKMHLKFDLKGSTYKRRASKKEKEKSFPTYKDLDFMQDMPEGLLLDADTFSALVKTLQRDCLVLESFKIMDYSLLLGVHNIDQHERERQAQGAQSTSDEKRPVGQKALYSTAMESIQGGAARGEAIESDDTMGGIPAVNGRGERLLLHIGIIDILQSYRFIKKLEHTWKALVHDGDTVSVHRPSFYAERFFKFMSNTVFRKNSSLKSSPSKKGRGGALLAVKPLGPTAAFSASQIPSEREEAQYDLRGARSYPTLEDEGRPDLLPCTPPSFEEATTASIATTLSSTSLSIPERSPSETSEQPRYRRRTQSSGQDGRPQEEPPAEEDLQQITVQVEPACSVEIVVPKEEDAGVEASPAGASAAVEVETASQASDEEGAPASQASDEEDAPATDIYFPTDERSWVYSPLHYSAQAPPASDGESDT

Series 1
Target: DNA polymerase theta, ATPase domain (POLQ, Homo sapiens, UniProt O75417)
Chain of UniProt O75417 (whole entry, unmodified, looked up): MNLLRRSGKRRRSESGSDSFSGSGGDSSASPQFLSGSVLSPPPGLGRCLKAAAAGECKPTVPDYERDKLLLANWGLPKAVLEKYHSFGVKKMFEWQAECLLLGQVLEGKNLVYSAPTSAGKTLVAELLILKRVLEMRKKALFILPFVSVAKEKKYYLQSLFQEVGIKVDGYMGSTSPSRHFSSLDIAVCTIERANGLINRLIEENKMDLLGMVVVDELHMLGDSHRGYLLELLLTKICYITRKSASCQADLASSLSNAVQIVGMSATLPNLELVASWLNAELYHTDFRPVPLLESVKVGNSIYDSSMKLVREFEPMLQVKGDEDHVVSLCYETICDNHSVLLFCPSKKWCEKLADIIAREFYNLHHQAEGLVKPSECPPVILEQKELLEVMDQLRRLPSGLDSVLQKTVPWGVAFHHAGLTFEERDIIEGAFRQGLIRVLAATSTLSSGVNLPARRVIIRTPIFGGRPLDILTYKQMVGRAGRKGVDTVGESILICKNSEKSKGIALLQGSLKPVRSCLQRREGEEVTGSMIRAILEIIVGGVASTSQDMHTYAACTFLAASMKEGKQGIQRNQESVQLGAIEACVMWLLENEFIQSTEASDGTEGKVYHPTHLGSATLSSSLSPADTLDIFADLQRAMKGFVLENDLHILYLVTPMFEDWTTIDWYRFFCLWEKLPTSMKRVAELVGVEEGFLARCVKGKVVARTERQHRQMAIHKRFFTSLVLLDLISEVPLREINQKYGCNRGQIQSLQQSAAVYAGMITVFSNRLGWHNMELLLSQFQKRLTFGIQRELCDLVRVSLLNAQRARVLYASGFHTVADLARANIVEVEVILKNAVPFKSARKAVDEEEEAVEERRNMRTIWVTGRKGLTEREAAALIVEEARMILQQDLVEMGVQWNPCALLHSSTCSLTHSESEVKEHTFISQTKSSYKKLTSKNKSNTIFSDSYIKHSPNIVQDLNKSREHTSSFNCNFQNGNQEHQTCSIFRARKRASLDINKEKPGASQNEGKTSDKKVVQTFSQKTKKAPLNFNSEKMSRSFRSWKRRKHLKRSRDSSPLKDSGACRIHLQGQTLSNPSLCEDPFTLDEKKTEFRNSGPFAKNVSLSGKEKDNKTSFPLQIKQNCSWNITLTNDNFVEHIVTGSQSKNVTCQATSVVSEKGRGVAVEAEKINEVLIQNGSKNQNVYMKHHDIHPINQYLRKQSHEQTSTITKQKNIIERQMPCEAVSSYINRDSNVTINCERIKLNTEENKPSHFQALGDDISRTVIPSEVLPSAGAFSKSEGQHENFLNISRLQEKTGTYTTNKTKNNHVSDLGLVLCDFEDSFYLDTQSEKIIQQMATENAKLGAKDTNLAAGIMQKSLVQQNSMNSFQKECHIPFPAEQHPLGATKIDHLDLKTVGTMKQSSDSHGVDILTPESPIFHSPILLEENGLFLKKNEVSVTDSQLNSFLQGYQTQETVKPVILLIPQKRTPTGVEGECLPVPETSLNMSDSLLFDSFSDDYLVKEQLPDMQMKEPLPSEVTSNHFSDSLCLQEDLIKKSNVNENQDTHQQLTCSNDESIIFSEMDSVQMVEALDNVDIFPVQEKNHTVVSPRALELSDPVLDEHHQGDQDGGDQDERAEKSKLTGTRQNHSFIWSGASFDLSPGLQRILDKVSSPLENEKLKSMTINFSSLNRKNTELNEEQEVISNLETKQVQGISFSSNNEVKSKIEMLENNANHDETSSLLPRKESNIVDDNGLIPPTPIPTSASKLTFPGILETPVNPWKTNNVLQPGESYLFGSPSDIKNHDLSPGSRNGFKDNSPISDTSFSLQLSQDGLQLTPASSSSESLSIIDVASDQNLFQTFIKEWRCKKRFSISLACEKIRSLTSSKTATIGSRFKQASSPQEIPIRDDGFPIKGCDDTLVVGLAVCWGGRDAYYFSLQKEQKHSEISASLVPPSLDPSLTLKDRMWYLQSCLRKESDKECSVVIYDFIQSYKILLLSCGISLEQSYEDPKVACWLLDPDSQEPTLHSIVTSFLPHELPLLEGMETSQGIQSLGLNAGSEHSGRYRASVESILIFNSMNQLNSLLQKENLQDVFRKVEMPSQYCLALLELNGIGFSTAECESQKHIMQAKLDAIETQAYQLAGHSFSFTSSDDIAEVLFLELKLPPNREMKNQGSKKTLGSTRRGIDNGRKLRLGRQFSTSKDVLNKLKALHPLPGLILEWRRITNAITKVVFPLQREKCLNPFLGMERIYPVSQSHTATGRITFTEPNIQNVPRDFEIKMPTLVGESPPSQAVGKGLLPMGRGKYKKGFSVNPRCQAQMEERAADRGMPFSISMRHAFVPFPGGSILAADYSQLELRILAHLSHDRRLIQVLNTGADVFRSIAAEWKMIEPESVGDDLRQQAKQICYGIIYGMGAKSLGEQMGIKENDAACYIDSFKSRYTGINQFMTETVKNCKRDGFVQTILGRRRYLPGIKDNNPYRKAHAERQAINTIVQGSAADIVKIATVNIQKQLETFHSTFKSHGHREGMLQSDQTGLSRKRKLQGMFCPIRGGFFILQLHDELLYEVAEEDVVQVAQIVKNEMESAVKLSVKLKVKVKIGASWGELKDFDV
Effect on: enzyme activity
Action: inhibitor
Tested at: 77 µM
Relative to: untreated
Measurement: remaining activity
CN(c1ccccc1CNc1nc(Nc2ccc3c(c2)CC(=O)N3)ncc1C(F)(F)F)S(C)(=O)=O: 104% and 109%
CCCCc1c(-c2ccc(O)cc2)[nH]c2nccnc12: 86.7%
CCN(CC)CCCCN1c2ccccc2Oc2ccc(Cl)cc21: 88.3%
CC(=O)O[C@]1(C(C)=O)CC[C@H]2[C@@H]3C=C(C)C4=CC(=O)CC[C@]4(C)[C@H]3CC[C@@]21C: 101% and 95.1%
CN(C(=O)CN(CCO)CC(=O)N(C)C(C)(C)Cc1ccccc1)C(C)(C)Cc1ccccc1: 103%
S=c1[nH]cnc2nc[nH]c12: 99.6%
CO[C@H]1/C=C/O[C@@]2(C)Oc3c(C)c(O)c4c(O)c(c(/C=N/N5CCN(C)CC5)c(O)c4c3C2=O)NC(=O)/C(C)=C\C=C\[C@H](C)[C@H](O)[C@@H](C)[C@@H](O)[C@@H](C)[C@H](OC(C)=O)[C@@H]1C: 100% and 97.8%

Series 2
Cell line: A-375
Tested at: 100 µM
Time: 36 h
Measurement: viability
Nc1cc(F)ccc1NC(=O)c1ccc(CNC(=O)/C=C/c2cccnc2)cc1: 4.57%
CCOC(=O)C1=C(C)NC(C)=C(C(=O)OCC)C1c1ccccc1/C=C/C(=O)OC(C)(C)C: 2.89%
CCc1nc(N)nc(N)c1-c1ccc(Cl)cc1: 46.4%
CCCCCCCCCCC[C@@H](C[C@@H]1OC(=O)[C@H]1CCCCCC)OC(=O)[C@H](CC(C)C)NC=O: 11.8%
CN[C@@H]1[C@H](O)[C@H](NC)[C@H]2O[C@@]3(O)C(=O)C[C@@H](C)O[C@H]3O[C@@H]2[C@H]1O: 94.2% and 112%
CC1CCC(C(C)C)C(O)C1 (racemic): 101%
CCOCC(O)COc1ccc(NC(=O)CC[S+](C)C)cc1 (stereo not shown): 123%
CC1(C)CCC(C)(C)c2cc(NC(=O)c3ccc(C(=O)O)cc3)ccc21: 52.8%

Series 3
SMILES: CNC(=O)Nc1ccc2c(c1)[C@@]1(CC2)OC(=O)N(CC(=O)N(Cc2ccc(F)cc2)[C@@H](C)C(F)(F)F)C1=O
Effect on: cell-free assay
Method: competition with immobilised ligand
Tested at: 1 µM
Measurement: remaining binding
5'-AMP-activated protein kinase catalytic subunit alpha-1 (PRKAA1, Homo sapiens, UniProt Q13131): 91%
Serine/threonine-protein kinase RIO1 (RIOK1, Homo sapiens, UniProt Q9BRS2): 100%
Receptor-type tyrosine-protein kinase FLT3 (FLT3, Homo sapiens, UniProt P36888, F691L/ITD): 99%
Phosphatidylinositol 4-phosphate 5-kinase type-1 gamma (PIP5K1C, Homo sapiens, UniProt O60331): 100%
Dual specificity tyrosine-phosphorylation-regulated kinase 2 (DYRK2, Homo sapiens, UniProt Q92630): 92%
Atypical kinase COQ8A, mitochondrial (COQ8A, Homo sapiens, UniProt Q8NI60): 88%
Phosphatidylinositol 5-phosphate 4-kinase type-2 gamma (PIP4K2C, Homo sapiens, UniProt Q8TBX8): 100%
Ribosomal protein S6 kinase alpha-6, N-terminal kinase domain (RPS6KA6, Homo sapiens, UniProt Q9UK32): 82%
Phosphatidylinositol 4,5-bisphosphate 3-kinase catalytic subunit alpha isoform (PIK3CA, Homo sapiens, UniProt P42336, I800L): 63%
Protein kinase C theta type (PRKCQ, Homo sapiens, UniProt Q04759): 89%
Mitogen-activated protein kinase 8 (MAPK8, Homo sapiens, UniProt P45983): 71%

Series 4
Target: Serine/threonine-protein kinase PAK 2 (PAK2, Homo sapiens, UniProt Q13177)
Chain of UniProt Q13177 (whole entry, looked up): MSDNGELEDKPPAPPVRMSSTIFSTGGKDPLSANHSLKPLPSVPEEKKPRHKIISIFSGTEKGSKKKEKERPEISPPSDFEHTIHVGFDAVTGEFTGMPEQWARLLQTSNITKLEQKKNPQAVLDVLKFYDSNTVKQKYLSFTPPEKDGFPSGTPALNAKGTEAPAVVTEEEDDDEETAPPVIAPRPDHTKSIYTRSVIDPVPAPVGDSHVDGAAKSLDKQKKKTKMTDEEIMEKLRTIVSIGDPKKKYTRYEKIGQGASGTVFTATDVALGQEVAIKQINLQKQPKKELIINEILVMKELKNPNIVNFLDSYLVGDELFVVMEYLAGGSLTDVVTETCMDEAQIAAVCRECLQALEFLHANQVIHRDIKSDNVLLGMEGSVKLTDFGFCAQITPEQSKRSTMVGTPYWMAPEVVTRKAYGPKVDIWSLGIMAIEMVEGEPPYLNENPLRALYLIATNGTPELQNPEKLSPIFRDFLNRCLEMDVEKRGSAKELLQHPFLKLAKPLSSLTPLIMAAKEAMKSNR
Effect on: enzyme activity
Action: inhibitor
Tested at: 0.5 µM
Relative to: control
Measurement: remaining activity
CCOC(=O)c1c(C)[nH]c(/C=C2\C(=O)Nc3ccccc32)c1C: 92.5%
COc1ccc(CNC(=O)Nc2ncc([N+](=O)[O-])s2)cc1: 102%
O=C(Nc1cccc(Nc2cc(Nc3cccc(C(F)(F)F)c3)ncn2)c1)C1CC1: 103%
O=C(CCCc1ccc(-c2ccccc2F)cc1)Nc1ccc(O)cc1: 101%
Nc1[nH]nc2nc3ccccc3nc12: 104%
Cn1c2ccccc2c2c3c(c4c5ccccc5n(CCC#N)c4c21)CNC3=O: 91.7%
COc1cc2nccc(Oc3ccc(NC(=S)NC(=O)c4ccccc4C)cc3)c2cc1OC: 91.2%
Cn1sc(=O)n(Cc2ccccc2)c1=O: 104%
Oc1ccc(-c2nc(-c3ccncc3)c(-c3ccc(F)cc3)[nH]2)cc1: 94.1%
Cc1ccc(Nc2nccc(N(C)c3ccc4c(C)n(C)nc4c3)n2)cc1S(N)(=O)=O: 98.9%
COc1cc2ncnc(Nc3ccc(Oc4ccccc4)cc3)c2cc1OC: 78.7%
CO[C@H]1C[C@@H]2CC[C@@H](C)[C@@](O)(O2)C(=O)C(=O)N2CCCC[C@H]2C(=O)O[C@H]([C@H](C)C[C@@H]2CC[C@@H](O)[C@H](OC)C2)CC(=O)[C@H](C)/C=C(\C)[C@@H](O)[C@@H](OC)C(=O)[C@H](C)C[C@H](C)/C=C/C=C/C=C/1C: 101%
Nc1ncnc2n[nH]c(Nc3ccc(F)cc3)c12: 103%
CC(C)[C@H](CO)Nc1nc(Nc2cc(N)cc(Cl)c2)c2ncn(C(C)C)c2n1: 95.5%

A few entries again (series 2):
CCc1nc(N)nc(N)c1-c1ccc(Cl)cc1: 46.4%
CCCCCCCCCCC[C@@H](C[C@@H]1OC(=O)[C@H]1CCCCCC)OC(=O)[C@H](CC(C)C)NC=O: 11.8%
CN[C@@H]1[C@H](O)[C@H](NC)[C@H]2O[C@@]3(O)C(=O)C[C@@H](C)O[C@H]3O[C@@H]2[C@H]1O: 94.2% and 112%
CC1CCC(C(C)C)C(O)C1 (racemic): 101%
